Measurements gathered from unrelated publications.
Each numbered part is a random draw from the data of one study; scales do not carry over between parts. Positions count from the first letter of the parent shown.

Set 1
Target: CCNB1, cyclin fold, Cln2 fusion (human)
Technique: yeast growth competition, sequencing
Matrix: yeast
Setting: strong parent motif
Relative to: not given
Direction: higher = stronger binding
Starting sequence: PKN2 docking peptide (human); VSAVQKLDFSDTM; partner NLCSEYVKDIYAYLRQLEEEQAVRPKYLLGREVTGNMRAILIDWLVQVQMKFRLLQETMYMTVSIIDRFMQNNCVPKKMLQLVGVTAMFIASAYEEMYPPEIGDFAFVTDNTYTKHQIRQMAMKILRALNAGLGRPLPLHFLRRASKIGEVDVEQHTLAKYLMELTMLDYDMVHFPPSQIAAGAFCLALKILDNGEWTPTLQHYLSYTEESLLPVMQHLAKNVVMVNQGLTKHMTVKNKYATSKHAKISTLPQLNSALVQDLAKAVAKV
For `S2P`, “normalised enrichment score” read 0.834.
Under “normalised enrichment score”, `L7C` is recorded as 0.445.
`S2Q` — result for “normalised enrichment score”: 2.21.
Under “normalised enrichment score”, `A3Q` is recorded as 0.0764.
For `A3S`, “normalised enrichment score” read 0.782.
`L7F`: “normalised enrichment score” -0.0736.
For `M13L`, “normalised enrichment score” read 2.2.
Under “normalised enrichment score”, `S10A` is recorded as 1.59.
`F9C`: “normalised enrichment score” 0.115.
`K6Q`: “normalised enrichment score” 1.64.
`Q5R` — result for “normalised enrichment score”: 3.26.
`T12P` — result for “normalised enrichment score”: 2.83.
For `S2G`, “normalised enrichment score” read 1.86.
For `M13T`, “normalised enrichment score” read 2.07.
Under “normalised enrichment score”, `M13E` is recorded as 2.92.

Set 2
Target: RNA binding protein fox-1 homolog 2, RRM domain, GST-SBP tag (RBFOX2, Homo sapiens, UniProt O43251-10, residues 100-194)
Technique: RNA Bind-n-Seq
Molecule type: RNA
Matrix: in vitro
Concentration: 365 nM
Setting: natural RNA segment, single round, ends assumed
Relative to: no-protein control
Direction: higher = stronger binding
Construct (chain): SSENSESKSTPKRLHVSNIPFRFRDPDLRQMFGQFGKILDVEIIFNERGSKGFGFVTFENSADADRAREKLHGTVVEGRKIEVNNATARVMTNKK
`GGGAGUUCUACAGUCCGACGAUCUCCUCAUCCCAACCAGAGGUGGCACACUUGGAUUGAGGGUUGACACAUCUCAUCUCACCCAUCGGCUACCUGCUGUAAUAUAAGACAACAGCUUUUAAACGUGUAUAUAAUGGAAUUCUCGGGUGCCAA`: “RBNS enrichment (R)” 0.677.
Under “RBNS enrichment (R)”, `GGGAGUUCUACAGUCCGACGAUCUUAAAAUACAAAAAUUUAAAUCUGACAUUUAAUUGUUUUAUAAUAAUCCAAACUCUAUGAAAGCAAUUUUAAAAAUUAUUAAGGUUUUAUGAAGUUGACAAAAUCUAACUUGGAAUUCUCGGGUGCCAA` is recorded as 0.495.
`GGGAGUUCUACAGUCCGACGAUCGCUCUCAAUCCCCAACAUUUGAUAGUCUUAGCAUUUAAACAAAAUCUCCGAGUGAGGGAGGCCAGCCCCCACAUUUGUCCUCUGCAGGCUCAUUUUGUUGAGCGUCUGCUUGGAAUUCUCGGGUGCCAA` — result for “RBNS enrichment (R)”: 1.51.
`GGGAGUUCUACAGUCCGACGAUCGAUACGCUCAUAUGCACUUAGGAGUGAGCUUUGUUGUACAGUCUGUCCACGGGGUCGAUGCUGUUAUUAGGUGAAAAUAGUGUGAUCUUUAAGACUUUAAAUACAGAUUUUGGAAUUCUCGGGUGCCAA` — result for “RBNS enrichment (R)”: 0.956.
Under “RBNS enrichment (R)”, `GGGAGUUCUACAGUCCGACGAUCCUGGUUUAACUCACAGCAACUUUUAAUUGGUCUAAGAUGAGGGCAUCCCUCAGUUGGUCCAUUGUAAUGAUGAUCGUCCUCAUCUGAGUGACAGUUACUGCCCAGGGUCCUGGAAUUCUCGGGUGCCAA` is recorded as 0.464.
Under “RBNS enrichment (R)”, `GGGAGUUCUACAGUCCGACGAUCUGCAGUCAGUGGUGUAUGCUUGUAAUCCCAGCCCUGGGGAGGCAGAGAAAAAUACCUAAGGCUCAGGCUCACCAGCUCAGCCAAAUCUGCAAGUACCAGACCAGUGAACAUGGAAUUCUCGGGUGCCAA` is recorded as 0.369.
For `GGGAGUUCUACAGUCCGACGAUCCCAGCCUGGGGUCCAACUCAGACUUGAAAGACUGCAAUAGAAAACUCCCAAACCCAGCACUCCAGACUCGAGGGAAGCCAGCUUCCAAGAACUGGAAUGCGUACGUCUUUUGGAAUUCUCGGGUGCCAA`, “RBNS enrichment (R)” read 0.251.
`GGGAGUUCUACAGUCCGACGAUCGAGCCCUUUAAGAUGAUAAAGGACCCAAUGCAGGUAAUCCUGUUUUUGGACUCACGUAAUGUAGAAUGCAAAGUUUAGUGAUUAUUUAAUCUGGGCCUAAGCUAGUGAGAUGGAAUUCUCGGGUGCCAA`: “RBNS enrichment (R)” 1.05.

Set 3
Target: Histone acetyltransferase KAT6A, winged helix 1, GST fusion (KAT6A, Homo sapiens, UniProt Q92794, residues 1-85)
Technique: protein binding microarray
Molecule type: double-stranded DNA, one strand shown
Matrix: in vitro
Concentration: not given
Setting: 8-mer, flanks averaged, mean of 2 arrays, mostly near background
Relative to: not given
Direction: higher = stronger binding
Target sequence (chain): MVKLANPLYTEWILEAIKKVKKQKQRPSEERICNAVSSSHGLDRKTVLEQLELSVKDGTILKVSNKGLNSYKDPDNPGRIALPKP
`CCGCATCA` has an E-score of 0.209.
For `CCAGTCAC`, the E-score was 0.0442.
The E-score of `CCCCCTCA` is reported as -0.302.
The E-score of `CCGTGTAG` is reported as 0.176.
`AGTTAGCG` gave an E-score of 0.0268.
With `AGAACTTA` the E-score was -0.128.
`TCAGGGCA` gave an E-score of -0.129.
The E-score of `CCCGTTAA` is reported as 0.276.
With `AGTCCCAC` the E-score was -0.22.
`AGTGCTTA` gave an E-score of -0.0789.
`AGAATCCC` gave an E-score of -0.0124.
For `CCGCGCGC`, the E-score was 0.481.
For `GGTGCCAA`, the E-score was -0.25.
For `CAACTCCA`, the E-score was -0.0835.
`ACTATCCT` gave an E-score of -0.176.
`GACTTCTC` gave an E-score of -0.251.
`GACCGTCC` has an E-score of 0.266.
`GTCCTTGA` has an E-score of -0.0871.
The E-score of `TAGCACAA` is reported as -0.188.
`AATAGGAC` gave an E-score of -0.142.
`ACCTGAGT` gave an E-score of 0.0206.

Set 4
Target: Ras GTPase-activating protein-binding protein 1, full length (G3BP1, Homo sapiens, UniProt Q13283)
Chain of UniProt Q13283 (whole entry, looked up): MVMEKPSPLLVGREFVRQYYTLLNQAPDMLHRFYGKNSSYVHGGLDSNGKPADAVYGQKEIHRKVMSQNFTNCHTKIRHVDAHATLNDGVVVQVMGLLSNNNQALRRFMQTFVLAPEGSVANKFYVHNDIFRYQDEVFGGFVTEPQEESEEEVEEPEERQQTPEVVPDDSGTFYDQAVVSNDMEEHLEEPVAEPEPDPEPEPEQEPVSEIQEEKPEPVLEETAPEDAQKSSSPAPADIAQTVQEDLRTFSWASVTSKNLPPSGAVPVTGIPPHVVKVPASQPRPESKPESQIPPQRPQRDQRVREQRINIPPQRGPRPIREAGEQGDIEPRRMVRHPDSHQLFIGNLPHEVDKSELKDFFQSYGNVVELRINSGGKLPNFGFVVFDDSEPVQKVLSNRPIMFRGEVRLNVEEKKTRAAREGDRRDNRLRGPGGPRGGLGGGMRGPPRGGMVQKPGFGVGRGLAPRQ
Technique: RNA Bind-n-Seq
Molecule type: RNA
Matrix: in vitro
Concentration: 200 nM
Setting: whole 134-nt RNA, ends assumed
With: 150 mM LiCl
Relative to: input library
Direction: higher = stronger binding
Library: 7-deaza-guanosine replaces G
The log2 enrichment of `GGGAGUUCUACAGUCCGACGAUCAAGUCCUGUGCUACACAUCGUAUGUACCGAAUCGGGGCCCCGGCCCCGGCCCCGGGGAAAGUAUUAUGUUACGCCGUUCGGAUCUGCACUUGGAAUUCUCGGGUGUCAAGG` is reported as -1.01.
With `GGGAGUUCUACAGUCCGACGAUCUAACUUUAGAGGAGGAUCUGAUGGAUAUGGCAGCGGACGUGGAUUUGGGGAUGGCUAUAAUGGGUAUGGAGGAGGACCUGGAGGUGGCAAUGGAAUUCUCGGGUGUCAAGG` the log2 enrichment was -0.0799.
`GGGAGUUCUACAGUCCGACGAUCAGUCCUGUGCUACACAUCGUAUGUACCGAAUCGGGUUUUUUUGGGUGGGAAAAAGGGAAAGUAUUAUGUUACGCCGUUCGGAUCUGCACUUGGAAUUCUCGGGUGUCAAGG` gave a log2 enrichment of -0.798.
With `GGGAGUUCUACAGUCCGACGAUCCAAGUCCUGUGCUACACAUCGUAUGUACCGAAUCGGGGAAAGGAAAGGAAAGGGGAAAGUAUUAUGUUACGCCGUUCGGAUCUGCACUUCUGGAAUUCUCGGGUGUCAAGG` the log2 enrichment was 0.112.
The log2 enrichment of `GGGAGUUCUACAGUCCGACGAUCGUCCUGUGCUACACAUCGUAUGUACCGAAUCGGGGCCCCCGGGCCCCCGGGCCCCCGGGAAAGUAUUAUGUUACGCCGUUCGGAUCUGCAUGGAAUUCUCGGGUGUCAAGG` is reported as -2.1.
With `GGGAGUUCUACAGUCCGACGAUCUGCUGUUAUCUGGAACUCCUACCUGUCCUGGAAGGCACAUCGGCUCUAAGCCUGCCUCACUCCAUCGUUUCCACCUUGCAGUGAUGCAGCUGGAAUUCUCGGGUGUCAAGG` the log2 enrichment was -1.65.
The log2 enrichment of `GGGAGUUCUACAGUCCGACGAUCUGGCCCUGGUGGCAUGCGGGAAGGAAGAGGUGGCCUCAUGGAUCGUGGUGGUCCCGGUGGAAUGUUCAGAGGUGGCCGUGGUGGAGACAGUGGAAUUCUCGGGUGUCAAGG` is reported as 0.377.
The log2 enrichment of `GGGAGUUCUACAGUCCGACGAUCACCAUGCAGGUGGGCAUCUUUGGGAAGUGGGGCAAGGGGGGGAUAGCGAGGGGGGUAACACUUUGGGAACAGGUGGUCCCAGGUCGUUUCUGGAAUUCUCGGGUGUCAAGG` is reported as 0.235.

For quick reference, copied from above (set 3):
`ACCTGAGT` gave an E-score of 0.0206.
`GACTTCTC` gave an E-score of -0.251.
With `AGTCCCAC` the E-score was -0.22.
`AATAGGAC` gave an E-score of -0.142.
With `AGAACTTA` the E-score was -0.128.
The E-score of `CCCCCTCA` is reported as -0.302.
The E-score of `CCCGTTAA` is reported as 0.276.
`CCGCATCA` has an E-score of 0.209.
